Measurements from different studies.
Each line is one published result; not all experiments were run side by side. “And” joins repeats or separate records; there may be more than shown. ± gives the spread as reported. ≈ marks a conversion by molar mass, not a printed value.

SMILES	target or system	assay	test system	setting	how to read	measurement	result
CN1CCN(C2(CNC3CCN(c4cccc(-c5cc6cc(F)ccc6[nH]5)c4)CC3)CCC2)CC1	OVCAR-3	–	–	–	–	GI50	1.64 µM
c1ccc(C(NCCNC(c2ccccc2)c2ccccc2)c2ccccc2)cc1	adrenergic alpha2 receptor, rat	binding	–	10 µM, Eurofins selectivity panel	–	inhibition	-13%
C[C@H]1O[C@@H](O[C@H]2CC[C@@]3(C)[C@@H](CC[C@]4(C)[C@@H]3C=C[C@]35OC[C@@]6(CCC(C)(C)C[C@H]63)[C@@H](O)C[C@]54C)[C@]2(C)CO)[C@H](O)[C@@H](O[C@@H]2O[C@H](CO)[C@@H](O)[C@H](O)[C@H]2O)[C@H]1O	–	Western blot, measured: Deptor	mouse, AAV8-TBG-Null control vector, liver	dose not given, high dose, unit not given, added: ethanol	reference: β-actin	protein level	0.716 and 0.887 and 0.975
O=C1NC(=O)C(C2C3=C(CCCC3=O)Oc3ccc([N+](=O)[O-])cc32)C(=O)N1 (stereo not drawn)	3T3-L1 preadipocytes	adipogenesis, Oil Red O staining	–	IC20, 14 days, single replicate	–	lipid content	0.501 OD492
COc1cc(CCC[P+](c2ccccc2)(c2ccccc2)c2ccccc2)c(OC)c2c1OCO2.[I-]	OVCAR-3	SRB	–	–	–	LC50	-4.25 log M
O=C(NNc1ccc(Cl)c(Cl)c1)c1nnc(CC23CC4CC(CC(C4)C2)C3)o1	Fusarium graminearum	fungal growth, inhibitor	–	50 µg/mL	–	inhibition	66.3 ± 0.8%
CN1CC[C@]23c4c5ccc(O)c4O[C@H]2[C@@H](OS(=O)(=O)O)C=C[C@H]3[C@H]1C5	–	hot water tail withdrawal test	normal Sprague-Dawley rats	ip, 1 mg/kg	–	peak increase in tail withdrawal latency	4.3 ± 0.3 s
CN1CCN(S(=O)(=O)c2cc([N+](=O)[O-])ccc2N(CCOS(C)(=O)=O)CCOS(C)(=O)=O)CC1	–	–	NSG mice, sample CF PDX	intraperitoneal, 25 mg/kg weekly x3	reference: treated over vehicle	EFS ratio (T/C)	10.5
Nc1ncnc2c1ncn2[C@@H]1O[C@@H]2COP(=O)(O)O[C@H]3[C@@H](O)[C@H](n4cnc5c(=O)[nH]cnc54)O[C@@H]3COP(=O)(O)O[C@H]2[C@H]1O	West Nile virus	RNA sequencing, measured: interferon alpha/beta signaling R-HSA-909733	HFF-1 cells	concentration not given, upregulated pathway	reference: WNV-infected untreated cells	fold enrichment	14.4
COc1ccc(-n2nc(C(C)=O)s/c2=N\N=C(/C)c2ccc(NC(C)=O)cc2)cc1	HepG2	–	–	0.156 µM	–	toxicity	62.4%
C[C@H](C(=O)N[C@H]1COc2ccccc2[C@@H]1S(C)(=O)=O)c1ccc(F)cc1	GABAA central, rat	binding	–	10 µM, Eurofins selectivity panel, added: flunitrazepam	–	inhibition	4%
COc1c(CCC[P+](c2ccccc2)(c2ccccc2)c2ccccc2)cc2c(c1OC)OCO2.[I-]	HOP-62	SRB	–	–	–	TGI	-4.84 log M
N.N.[Cl][Pt][Cl]	CAL-27	flow cytometry sub-G1	–	3 µM, 24 h	–	apoptotic cells	26.3%
CC[C@H](C)[C@H](NC(=O)[C@H](C)NC(=O)[C@H](CCCCN)NC(=O)[C@H](CC(C)C)NC(=O)[C@H](C)NC(=O)[C@@H](NC(=O)[C@H](Cc1c[nH]cn1)NC(=O)[C@H](CC(C)C)NC(=O)[C@@H](NC(=O)[C@@H](NC(=O)[C@H](CCCCN)NC(=O)[C@H](C)NC(=O)[C@H](C)NC(=O)[C@H](CO)NC(=O)[C@H](CCCCN)NC(=O)[C@H](Cc1ccccc1)NC(=O)[C@@H](NC(=O)[C@H](CCCCN)NC(=O)[C@H](CC(C)C)NC(=O)[C@H](Cc1ccccc1)NC(=O)[C@H](CO)NC(=O)[C@H](CCCCN)NC(=O)[C@H](Cc1c[nH]c2ccccc12)NC(=O)[C@H](CCCCN)NC(C)=O)[C@@H](C)O)[C@@H](C)O)C(C)C)[C@@H](C)O)C(=O)N[C@@H](CO)C(=O)N[C@@H](CO)C(N)=O	Pseudomonas aeruginosa	–	ATCC 27853	–	–	MBC range	8 µg/mL (≈ 2.73 µM)
CC[C@H](C)[C@@H]1NC(=O)[C@@H]2CCCN2C(=O)[C@H](CC(C)C)NC(=O)[C@H](CC(C)C)NC(=O)CNC(=O)[C@@H](NC(=O)[C@@H](NC(=O)[C@H](CC(=O)O)NC(=O)CNC(=O)[C@@H](NC(=O)[C@H](C)NC(=O)CNC(=O)[C@H](CCCCN)NC(=O)[C@H](CC(C)C)NC(=O)[C@H](CC(C)C)NC(=O)[C@H](CCCCN)NC(=O)CNC(=O)[C@@H](NC(=O)[C@@H](N)CC(C)C)C(C)C)C(C)C)C(C)C)CSSC[C@@H](C(=O)O)NC1=O	–	RNA-seq, measured: Neurl3	mouse, traumatic brain injury model, frontal cortex and hippocampus	dose not given	reference: TBI alone	log2 fold change	-2.54
CCCCC1(CCCC)CN(c2ccccc2)c2cc(SC)c(OCC(=O)N[C@@H](C(=O)NCC(=O)O)c3ccccc3)cc2S(=O)(=O)C1	–	measured: LDL cholesterol	human, serum	2.5 mg once daily, day 8	–	serum LDL-C	100 mg/dL
CC(C)N1CCC(NC2CCN(c3cccc(-c4cc5cc(F)ccc5[nH]4)c3)CC2)CC1	HOP-62	–	–	–	–	GI50	1.66 µM
CS(=O)(=O)CCCn1c(Cn2c(=O)n(CC(F)(F)F)c3ccncc32)cc2cc(Cl)ccc21	respiratory syncytial virus	RT-qPCR	hospitalized infants 1-24 months, nasal swab	oral, 9, 6 or 5 mg/kg daily, day 28, high dose by age cohort	reference: placebo	LS mean difference vs placebo	0.34 log10 copies/mL

A few entries again:
SMILES	target or system	assay	test system	setting	how to read	measurement	result
O=C(NNc1ccc(Cl)c(Cl)c1)c1nnc(CC23CC4CC(CC(C4)C2)C3)o1	Fusarium graminearum	fungal growth, inhibitor	–	50 µg/mL	–	inhibition	66.3 ± 0.8%
COc1c(CCC[P+](c2ccccc2)(c2ccccc2)c2ccccc2)cc2c(c1OC)OCO2.[I-]	HOP-62	SRB	–	–	–	TGI	-4.84 log M
